Measured values from different studies.
Every numbered part comes from another study and shows a few of its results, in no order. Values joined by “and” are separate records of one study, mostly repeats; a detail may differ.
UniProt P49840, sequence (whole entry, looked up): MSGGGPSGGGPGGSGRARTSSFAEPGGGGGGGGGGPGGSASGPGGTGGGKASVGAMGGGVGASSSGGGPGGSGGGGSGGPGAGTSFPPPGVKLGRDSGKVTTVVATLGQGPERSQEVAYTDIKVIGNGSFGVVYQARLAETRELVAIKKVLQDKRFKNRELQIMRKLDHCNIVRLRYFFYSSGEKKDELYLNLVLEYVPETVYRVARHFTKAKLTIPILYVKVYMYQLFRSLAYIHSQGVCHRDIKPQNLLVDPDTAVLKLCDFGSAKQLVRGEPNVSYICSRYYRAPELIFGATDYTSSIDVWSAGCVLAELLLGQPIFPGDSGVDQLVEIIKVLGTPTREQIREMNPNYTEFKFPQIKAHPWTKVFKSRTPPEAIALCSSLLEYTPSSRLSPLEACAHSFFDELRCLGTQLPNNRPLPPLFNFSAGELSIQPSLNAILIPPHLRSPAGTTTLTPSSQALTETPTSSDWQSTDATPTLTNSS
UniProt Q9UPE1, sequence (whole entry, looked up): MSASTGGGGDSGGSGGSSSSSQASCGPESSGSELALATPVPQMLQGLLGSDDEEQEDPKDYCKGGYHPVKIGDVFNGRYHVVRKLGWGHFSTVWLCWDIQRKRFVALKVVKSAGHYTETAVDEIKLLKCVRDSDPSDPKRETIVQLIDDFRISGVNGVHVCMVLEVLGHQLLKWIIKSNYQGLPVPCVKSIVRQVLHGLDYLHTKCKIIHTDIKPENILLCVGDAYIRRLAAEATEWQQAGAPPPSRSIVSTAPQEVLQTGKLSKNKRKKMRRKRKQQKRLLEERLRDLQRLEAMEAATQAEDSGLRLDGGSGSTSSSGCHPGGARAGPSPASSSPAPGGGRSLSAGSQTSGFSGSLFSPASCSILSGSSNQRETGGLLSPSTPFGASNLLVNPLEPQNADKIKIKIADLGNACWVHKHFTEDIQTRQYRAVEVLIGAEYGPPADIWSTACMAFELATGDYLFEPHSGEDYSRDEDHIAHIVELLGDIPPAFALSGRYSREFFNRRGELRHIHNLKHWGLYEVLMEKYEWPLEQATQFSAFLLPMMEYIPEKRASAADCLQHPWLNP
UniProt Q8IVW4, sequence (whole entry, looked up): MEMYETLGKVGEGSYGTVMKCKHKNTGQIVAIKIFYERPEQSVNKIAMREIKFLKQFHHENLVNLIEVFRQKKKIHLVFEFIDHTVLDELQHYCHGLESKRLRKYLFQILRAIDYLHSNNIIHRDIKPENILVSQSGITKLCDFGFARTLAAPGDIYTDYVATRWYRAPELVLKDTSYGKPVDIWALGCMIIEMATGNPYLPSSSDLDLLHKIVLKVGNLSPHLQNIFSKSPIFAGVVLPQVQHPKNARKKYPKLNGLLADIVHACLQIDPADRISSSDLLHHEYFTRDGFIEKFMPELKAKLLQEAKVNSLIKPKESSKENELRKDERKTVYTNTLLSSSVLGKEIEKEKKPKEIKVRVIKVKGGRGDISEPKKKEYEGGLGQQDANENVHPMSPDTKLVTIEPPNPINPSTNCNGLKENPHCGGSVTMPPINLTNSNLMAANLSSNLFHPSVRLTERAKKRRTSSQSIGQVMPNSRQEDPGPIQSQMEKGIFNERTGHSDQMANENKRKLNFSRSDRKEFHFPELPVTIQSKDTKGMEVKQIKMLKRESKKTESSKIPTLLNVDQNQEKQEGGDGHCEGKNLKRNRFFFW
UniProt P29323, sequence (whole entry, looked up): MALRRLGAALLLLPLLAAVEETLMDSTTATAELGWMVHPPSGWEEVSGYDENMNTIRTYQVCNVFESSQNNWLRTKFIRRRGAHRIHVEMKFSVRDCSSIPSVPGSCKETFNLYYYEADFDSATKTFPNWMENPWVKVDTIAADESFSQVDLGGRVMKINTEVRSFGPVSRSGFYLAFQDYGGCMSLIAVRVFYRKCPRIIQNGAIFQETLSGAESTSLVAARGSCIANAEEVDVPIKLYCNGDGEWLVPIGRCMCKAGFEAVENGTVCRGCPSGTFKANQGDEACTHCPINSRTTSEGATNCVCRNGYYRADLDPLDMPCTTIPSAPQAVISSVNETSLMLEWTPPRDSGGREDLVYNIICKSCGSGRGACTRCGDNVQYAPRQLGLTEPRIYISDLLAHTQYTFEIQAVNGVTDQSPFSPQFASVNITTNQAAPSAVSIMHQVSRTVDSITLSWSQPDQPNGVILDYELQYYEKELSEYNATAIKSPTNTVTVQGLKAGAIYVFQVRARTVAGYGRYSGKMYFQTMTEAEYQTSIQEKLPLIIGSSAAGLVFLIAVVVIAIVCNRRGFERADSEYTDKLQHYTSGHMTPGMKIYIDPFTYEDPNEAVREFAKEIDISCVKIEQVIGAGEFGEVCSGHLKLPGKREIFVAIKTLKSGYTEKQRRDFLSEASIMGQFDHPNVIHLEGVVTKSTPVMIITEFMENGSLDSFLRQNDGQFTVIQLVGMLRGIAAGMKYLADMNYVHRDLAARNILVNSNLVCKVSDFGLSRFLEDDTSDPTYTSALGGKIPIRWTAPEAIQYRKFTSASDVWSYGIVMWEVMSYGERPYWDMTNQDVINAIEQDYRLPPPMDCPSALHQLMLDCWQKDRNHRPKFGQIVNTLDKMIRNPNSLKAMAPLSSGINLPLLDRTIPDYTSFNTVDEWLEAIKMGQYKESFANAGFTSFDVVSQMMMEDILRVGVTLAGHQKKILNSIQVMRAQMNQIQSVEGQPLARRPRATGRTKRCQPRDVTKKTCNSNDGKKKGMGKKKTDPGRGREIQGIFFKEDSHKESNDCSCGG
UniProt Q32MK0, sequence (whole entry, looked up): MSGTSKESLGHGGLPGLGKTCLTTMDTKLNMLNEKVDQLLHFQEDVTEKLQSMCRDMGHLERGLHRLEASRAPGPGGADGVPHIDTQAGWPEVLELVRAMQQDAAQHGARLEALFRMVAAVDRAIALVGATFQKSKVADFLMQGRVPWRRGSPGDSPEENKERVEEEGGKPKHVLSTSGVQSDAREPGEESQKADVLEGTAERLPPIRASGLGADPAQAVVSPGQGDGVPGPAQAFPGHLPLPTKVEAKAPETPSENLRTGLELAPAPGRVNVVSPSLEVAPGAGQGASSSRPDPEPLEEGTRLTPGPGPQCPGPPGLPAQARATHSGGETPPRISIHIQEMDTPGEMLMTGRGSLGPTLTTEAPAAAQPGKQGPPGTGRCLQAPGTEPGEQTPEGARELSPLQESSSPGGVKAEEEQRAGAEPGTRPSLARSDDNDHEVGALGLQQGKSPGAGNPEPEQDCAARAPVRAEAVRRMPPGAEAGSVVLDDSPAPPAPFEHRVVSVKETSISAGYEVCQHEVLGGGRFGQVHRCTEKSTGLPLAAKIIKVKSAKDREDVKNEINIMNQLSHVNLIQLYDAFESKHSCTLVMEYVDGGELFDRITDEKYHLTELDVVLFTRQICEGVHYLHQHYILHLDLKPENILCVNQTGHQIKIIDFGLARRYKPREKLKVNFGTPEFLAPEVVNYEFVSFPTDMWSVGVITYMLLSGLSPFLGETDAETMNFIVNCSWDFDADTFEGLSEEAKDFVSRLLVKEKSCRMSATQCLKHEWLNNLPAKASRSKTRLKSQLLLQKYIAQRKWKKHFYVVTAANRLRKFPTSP
UniProt Q9P0L2, sequence (whole entry, looked up): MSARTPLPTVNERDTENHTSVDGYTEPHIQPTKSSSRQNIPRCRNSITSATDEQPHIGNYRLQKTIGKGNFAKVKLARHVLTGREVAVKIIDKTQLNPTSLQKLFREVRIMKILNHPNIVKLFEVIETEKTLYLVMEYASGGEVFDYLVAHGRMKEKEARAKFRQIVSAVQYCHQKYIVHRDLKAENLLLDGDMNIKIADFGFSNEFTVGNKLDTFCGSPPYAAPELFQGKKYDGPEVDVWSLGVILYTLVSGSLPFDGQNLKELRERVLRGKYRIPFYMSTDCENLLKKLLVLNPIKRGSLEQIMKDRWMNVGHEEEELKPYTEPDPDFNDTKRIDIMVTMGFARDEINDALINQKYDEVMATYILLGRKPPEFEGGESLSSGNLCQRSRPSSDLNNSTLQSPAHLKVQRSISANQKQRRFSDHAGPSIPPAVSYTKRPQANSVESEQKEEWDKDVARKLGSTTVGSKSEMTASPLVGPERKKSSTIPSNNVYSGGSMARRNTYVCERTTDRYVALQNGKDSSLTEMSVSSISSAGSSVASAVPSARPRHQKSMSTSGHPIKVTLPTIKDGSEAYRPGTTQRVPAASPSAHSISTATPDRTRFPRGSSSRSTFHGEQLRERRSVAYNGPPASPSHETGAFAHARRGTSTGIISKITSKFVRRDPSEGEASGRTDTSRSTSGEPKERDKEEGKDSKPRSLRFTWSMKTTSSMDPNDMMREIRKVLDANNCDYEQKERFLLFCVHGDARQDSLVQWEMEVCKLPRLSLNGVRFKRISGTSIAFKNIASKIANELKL
UniProt P23443, sequence (whole entry, looked up): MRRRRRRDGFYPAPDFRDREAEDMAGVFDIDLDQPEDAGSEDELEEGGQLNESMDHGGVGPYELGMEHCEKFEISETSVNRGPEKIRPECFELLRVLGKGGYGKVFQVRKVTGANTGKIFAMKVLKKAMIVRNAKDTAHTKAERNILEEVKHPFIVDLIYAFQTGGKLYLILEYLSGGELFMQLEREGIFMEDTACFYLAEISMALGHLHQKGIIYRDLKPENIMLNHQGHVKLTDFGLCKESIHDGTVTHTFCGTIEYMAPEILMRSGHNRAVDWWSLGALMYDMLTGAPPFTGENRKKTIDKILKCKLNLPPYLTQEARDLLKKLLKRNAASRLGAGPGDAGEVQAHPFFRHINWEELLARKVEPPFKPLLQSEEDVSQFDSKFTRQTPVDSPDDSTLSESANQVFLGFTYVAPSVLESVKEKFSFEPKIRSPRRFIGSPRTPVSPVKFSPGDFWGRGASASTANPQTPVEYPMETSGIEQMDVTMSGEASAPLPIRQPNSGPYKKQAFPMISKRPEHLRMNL

Study 1
Species: human
Matrix: microsomes or S9
Tested at: 2 µM
Time: 0.5 h
| SMILES | remaining compound [%] |
| --- | --- |
| Cn1cc(C(NC(=O)c2cc3sccc3[nH]2)[C@H]2C[C@@H](O)C2)cn1 (stereo partly drawn) | 95.1 |
| COc1cc(Br)c(/C=C2\Oc3ccccc3C2O)cc1OC (stereo not drawn) | > 99.9 |
| CCOC1CC(OC(=O)c2csc(-c3ccco3)n2)C12CCC2 (stereo not drawn) | 0.0164 |
| O=C(Nc1ccc(/C=C/C(=O)N2CCC[C@H]2C(=O)O)cc1)Nc1ccccc1Br | > 99 |
| CN(C(=O)c1c[nH]nn1)C1c2ccccc2-c2ccccc21 | 83.9 |
| CCOC(=O)Cn1c2c(c(=N)c3c1CCC3)CCC2 | 91.8 |
| CCOC(=O)Cc1c(-c2nc3ccccc3c(=O)[nH]2)[nH]c2ccccc12 | 36 |
| O=C(CCS(=O)(=O)c1ccccc1)N(Cc1cccnc1)c1nc2ccc(Cl)cc2s1 | 52.3 |
| Cc1nn2c(-c3ccccc3)c(C#N)nnc2c1-c1ccccc1 | 35.1 |
| CCOC(=O)Cc1cc(=O)c2c(=O)n(-c3ccccc3)[nH]c2[nH]1 | 91 |
| COc1c(C)c(C)c2nc(NCc3ccc(S(N)(=O)=O)cc3)sc2c1C | 99.1 |
| COc1nccnc1Oc1cc(F)c(CN2CCCC2)c(Cl)c1 | 98.2 |
| COC(=O)Nc1ccc(-c2ccc(C)nc2N)cc1 | 91.6 |

Study 2
Compound: N#Cc1cnc2cnc(NCc3cccnc3)cc2c1Nc1ccc(F)c(Cl)c1
Read-out: enzyme activity
Mode: inhibitor
Tested at: 0.5 µM
Relative to: control
| target | remaining activity [%] |
| --- | --- |
| CSF1R (Homo sapiens, UniProt P07333) | 96.3 |
| FGFR4 (Homo sapiens, UniProt P22455) | 92.6 |
| EPHB2 (Homo sapiens, UniProt P29323) | 97.4 |
| PAK2 (Homo sapiens, UniProt Q13177) | 66.6 |
| FLT3 (Homo sapiens, UniProt P36888) | 83.6 |
| PRKCG (Homo sapiens, UniProt P05129) | 111 |
| SRPK3 (Homo sapiens, UniProt Q9UPE1) | 96.4 |
| PIM2 (Homo sapiens, UniProt Q9P1W9) | 101 |
| GRK6 (Homo sapiens, UniProt P43250) | 106 |
| RPS6KB1 (Homo sapiens, UniProt P23443) | 89.4 |
| GSK3A (Homo sapiens, UniProt P49840) | 88.5 |
| CSK (Homo sapiens, UniProt P41240) | 95.2 |
| Aurora kinase C (AURKC, Homo sapiens, UniProt Q9UQB9) | 91.8 |
| NUAK1 (Homo sapiens, UniProt O60285) | 103 |

Study 3
SMILES: COc1ccc2c(O[C@@H]3C[C@H]4C(=O)N[C@]5(C(=O)O)CC5/C=C\CCCCC[C@H](NC(=O)OC5CCCC5)C(=O)N4C3)cc(-c3csc(NC(=O)C(C)C)n3)nc2c1C (stereo partly drawn)
Read-out: cell-free assay
Method: competition with immobilised ligand
Tested at: 1 µM
| target | remaining binding [%] |
| --- | --- |
| FRK (Homo sapiens, UniProt P42685) | 100 |
| COQ8A (Homo sapiens, UniProt Q8NI60) | 100 |
| TESK1 (Homo sapiens, UniProt Q15569) | 91 |
| CDKL3 (Homo sapiens, UniProt Q8IVW4) | 92 |
| MYLK3 (Homo sapiens, UniProt Q32MK0) | 100 |
| SLK (Homo sapiens, UniProt Q9H2G2) | 100 |
| Mast/stem cell growth factor receptor Kit, autoinhibited (KIT, Homo sapiens, UniProt P10721) | 72 |
| STK32B (Homo sapiens, UniProt Q9NY57) | 100 |
| PIK3CA (Homo sapiens, UniProt P42336, I800L) | 65 |
| MARK1 (Homo sapiens, UniProt Q9P0L2) | 100 |
| CAMK1G (Homo sapiens, UniProt Q96NX5) | 98 |
| ALK (Homo sapiens, UniProt Q9UM73, L1196M) | 97 |
| TLK2 (Homo sapiens, UniProt Q86UE8) | 100 |
| eIF-2-alpha kinase GCN2, C-terminal kinase domain (EIF2AK4, Homo sapiens, UniProt Q9P2K8, S808G) | 100 |
| FGFR3 (Homo sapiens, UniProt P22607) | 100 |

Study 4
Cell line: mouse MPNST tumor cells
Method: high-content immunofluorescence imaging
Measured: nuclear SOX9
Tested at: 10 µM
Time: 12 h
Notes: mean of 2 replicates
Relative to: DMSO control
Direction: higher = more nuclear SOX9
| Structure (SMILES) | nuclear SOX9 intensity |
| --- | --- |
| O=C(c1ccc(F)cc1)C1CCN(CCCCc2ccccc2)CC1 | 125 % of DMSO |
| C=C(C)[C@@H]1CC[C@]2(C(=O)O)CC[C@]3(C)[C@H](CC[C@@H]4[C@@]5(C)CC[C@H](O)C(C)(C)[C@@H]5CC[C@]43C)[C@@H]12 | 99.5 % of DMSO |
| CCC(CC=Cc1ccccc1)(c1ccccc1)N(C)CC1CC1 (single isomer, unassigned; (+)) | 106 % of DMSO |
| Cc1ccc(C)c(OCCCC(C)(C)C(=O)O)c1 | 136 % of DMSO |
| c1ccc2c(CC3=NCCN3)cccc2c1 | 99.3 % of DMSO |
| OC(CCN1CCCCC1)(c1ccccc1)C1CCCCC1 (stereo not drawn) | 111 % of DMSO and 123 % of DMSO |
| CCCCC1C(=O)N(c2ccccc2)N(c2ccc(O)cc2)C1=O (stereo not drawn) | 121 % of DMSO and 158 % of DMSO |
| NS(=O)(=O)c1nn2cc(-c3ccccc3)nc2s1 | 82.7 % of DMSO |
| O=C(Nc1cccc2cccnc12)c1ccc(N2C(=O)[C@@H]3[C@H](C2=O)[C@H]2C=C[C@@H]3C2)cc1 | 103 % of DMSO |
| CCN(CC)CCCCNc1ncc2cc(-c3c(Cl)cccc3Cl)c(NC(=O)NC(C)(C)C)nc2n1 | 176 % of DMSO |
| CCCCCCC(=O)OC1CC(C)(C)NC(C)(C)C1 | 97.3 % of DMSO |
| N/C(=N\C(=O)c1nc(Cl)c(N)nc1N)NCc1ccccc1 | 101 % of DMSO and 103 % of DMSO |

Repeated from above (study 4):
| Structure (SMILES) | nuclear SOX9 intensity |
| --- | --- |
| Cc1ccc(C)c(OCCCC(C)(C)C(=O)O)c1 | 136 % of DMSO |
| c1ccc2c(CC3=NCCN3)cccc2c1 | 99.3 % of DMSO |
| OC(CCN1CCCCC1)(c1ccccc1)C1CCCCC1 (stereo not drawn) | 111 % of DMSO and 123 % of DMSO |
| CCCCC1C(=O)N(c2ccccc2)N(c2ccc(O)cc2)C1=O (stereo not drawn) | 121 % of DMSO and 158 % of DMSO |
| NS(=O)(=O)c1nn2cc(-c3ccccc3)nc2s1 | 82.7 % of DMSO |
| O=C(Nc1cccc2cccnc12)c1ccc(N2C(=O)[C@@H]3[C@H](C2=O)[C@H]2C=C[C@@H]3C2)cc1 | 103 % of DMSO |
| CCN(CC)CCCCNc1ncc2cc(-c3c(Cl)cccc3Cl)c(NC(=O)NC(C)(C)C)nc2n1 | 176 % of DMSO |
| CCCCCCC(=O)OC1CC(C)(C)NC(C)(C)C1 | 97.3 % of DMSO |
| N/C(=N\C(=O)c1nc(Cl)c(N)nc1N)NCc1ccccc1 | 101 % of DMSO and 103 % of DMSO |
